Earlier results as cited in several papers.
Protocols differ between the studies behind these lines. Numbers after ± are the reported error.

| Molecule | assay | system | setting | scale | measurement | value |
| --- | --- | --- | --- | --- | --- | --- |
| C=CC(=O)NCCCCCC(=O)N[C@@H](CCCCN)C(=O)N[C@@H](CC(C)C)C(=O)N[C@@H](C)C(=O)N[C@@H](CCCCN)C(=O)N[C@@H](CC(C)C)C(=O)N[C@@H](C)C(=O)N[C@@H](CCCCN)C(=O)N[C@@H](CCCCN)C(=O)N[C@@H](CC(C)C)C(=O)N[C@@H](C)C(=O)N[C@@H](CCCCN)C(=O)N[C@@H](CC(C)C)C(=O)N[C@@H](C)C(=O)N[C@@H](CCCCN)C(N)=O | – | – | amine groups | – | pKa | 9 |
| CC[C@H](C)[C@H](NC(=O)[C@H](CCCCN)NC(=O)[C@H](CCCCN)NC(=O)[C@H](Cc1c[nH]cn1)NC(=O)[C@H](CC(C)C)NC(=O)[C@H](CCCCN)NC(=O)[C@H](Cc1ccccc1)NC(C)=O)C(=O)N[C@@H](CC(C)C)C(=O)N[C@@H](CCCCN)C(=O)N[C@H](C(=O)N[C@@H](CC(C)C)C(N)=O)C(C)C | – | horse erythrocytes 5 % v/v | 150 µM | – | hemolysis | 0 ± 0.5% |
| C[C@@H]1COC(Nc2ccc3ncnc(Nc4ccc(OCc5nccs5)c(Cl)c4)c3c2)=N1 | – | human | continuous twice daily, together with: docetaxel | – | maximum tolerated dose | 500 mg |
| C[C@@H]1[C@H](O)[C@@H](C)/C=C/C=C/C=C/C=C/C=C/C=C/C=C/[C@H](O[C@@H]2O[C@H](C)[C@@H](O)[C@H](N)[C@@H]2O)C[C@@H]2O[C@](O)(C[C@@H](O)C[C@@H](O)[C@H](O)CC[C@@H](O)C[C@@H](O)CC(=O)O[C@H]1C)C[C@H](O)[C@H]2C(=O)O | – | paediatric patients, invasive candidiasis | dose not given, initial therapy | – | all-cause mortality | ≤ 24% |
| CN(C(=O)n1cnc(-c2ccc[n+]([O-])c2)c1)C1CCCCC1 | – | plasma | oral, concentration not given | – | parent share of plasma AUC | > 90% |
| CCC(=O)N1CCC(NC(=O)Nc2ccc(OC(F)(F)F)cc2)CC1 | – | mouse, blood | drinking water, 0.02 to 0.2 mg/kg, 8 to 12 days | – | Cmax | 200 to 1500 nM |
| O=C(O)C(F)(F)C(F)(F)C(F)(F)C(F)(F)C(F)(F)C(F)(F)C(F)(F)C(F)(F)C(F)(F)F | – | juvenile Chinook salmon, whole body wet weight | concentration not given, field-collected | – | maximum whole-body concentration | 0.78 ng/g |
| N#Cc1nn(-c2c(Cl)cc(C(F)(F)F)cc2Cl)c(N)c1S(=O)(=O)C(F)(F)F | – | rat, urine | oral gavage, 5 mg/kg fipronil | – | urine concentration | 8 ng/mL |
| C[C@@H]1O[C@@H](O[C@H]2[C@H](Oc3cc(O)c4c(c3)O[C@H](c3ccc(O)cc3)CC4=O)O[C@H](CO)[C@@H](O)[C@@H]2O)[C@H](O)[C@H](O)[C@H]1O | – | rat | oral | – | NOAEL | > 1250 mg/kg/day |
| CCCCCCCCCCCCCCCC[N+](C)(C)C | – | air-water interface | – | – | surface partition coefficient | 7.44e-06 m |
| N#Cc1c(Cl)cccc1Cl | – | mouse, nasal mucosa | intraperitoneal | – | lowest dose with nasal lesions | 12 mg/kg |
| CC1(C)CCC(CN2CCN(c3ccc(C(=O)NS(=O)(=O)c4ccc(NCC5CCOCC5)c([N+](=O)[O-])c4)c(Oc4cnc5[nH]ccc5c4)c3)CC2)=C(c2ccc(Cl)cc2)C1 | – | human, non-Hodgkin's lymphoma patients | 50 mg single dose, together with: ketoconazole 400 mg once daily | baseline: without ketoconazole | AUC increase | 6.4 fold |
| CC(C)[C@H](C(=O)Nc1ccc(C(=O)NO)cc1)c1ccccc1 | – | patients with solid tumours | three times weekly | – | maximum tolerated dose | 60 mg |
| C=CC(=O)N1CCC(Oc2cc3c(Nc4ccc(Cl)c(Cl)c4F)ncnc3cc2OC)CC1 | – | advanced solid tumour patients | intermittent dosing | – | maximum tolerated dose | 24 mg/day |
| CC1(C)C(C=C(Cl)Cl)C1C(=O)OC(C#N)c1ccc(F)c(Oc2ccccc2)c1 (stereo not drawn) | – | rat or mouse | oral | – | LD50 | 900 mg/kg |
| CN(C)CCO | – | male Wistar rat | intravenous, 11 mg/kg, 24 h | – | dose eliminated | ~13.5% |
| CC[NH][Pt]([Cl])([Cl])([NH]CC)([O]C(=O)CCC(=O)OCC)[O]C(=O)CCC(=O)OCC | – | mouse | po, dose not given, 24 h | – | platinum in blood pellet | ~60% |
| CCCCCOc1ccc(-c2cc(-c3ccc(C(=O)N[C@H]4C[C@@H](O)[C@@H](O)NC(=O)[C@@H]5[C@@H](O)[C@@H](C)CN5C(=O)[C@H]([C@H](O)CC(N)=O)NC(=O)[C@H]([C@H](O)[C@@H](O)c5ccc(O)c(OS(=O)(=O)O)c5)NC(=O)[C@@H]5C[C@@H](O)CN5C(=O)[C@H]([C@@H](C)O)NC4=O)cc3)no2)cc1 | – | adults with invasive candidiasis | 100 mg daily, steady state | – | Cmax | 10500 ng/mL |
| Cc1nc2cccc(OCC(C)(C)C(=O)NC(C)C)c2c(N)c1C(=O)O | – | pregnant rat | oral, embryo-fetal development, gestation days 6 to 20, highest dose tested | – | NOAEL | 1000 mg/kg/day |
| CN[C@H](CC(C)C)C(=O)N[C@H]1C(=O)N[C@@H](CC(N)=O)C(=O)N[C@H]2C(=O)N[C@H]3C(=O)N[C@H](C(=O)N[C@H](C(=O)O)c4cc(O)cc(O)c4-c4cc3ccc4O)[C@H](O)c3ccc(c(Cl)c3)Oc3cc2cc(c3O[C@@H]2O[C@H](CO)[C@@H](O)[C@H](O)[C@H]2O[C@H]2C[C@](C)(N)[C@H](O)[C@H](C)O2)Oc2ccc(cc2Cl)[C@H]1O | – | underweight adults | dose not given, weight below 80% of ideal | – | volume of distribution | 0.83 L/kg |
| CCCC(=O)NCCCC[C@H](NC(=O)[C@@H](NC(=O)[C@H](CCCCN)NC(=O)[C@H](CCCCN)NC(=O)[C@@H](Cc1ccccc1)NC(=O)[C@H](CC(C)C)NC(=O)[C@H](CCCCN)NC(=O)[C@H](CCCCN)NC(C)=O)[C@@H](C)CC)C(=O)N[C@@H](CCCCN)C(=O)N[C@@H](Cc1ccc(O)cc1)C(=O)N[C@@H](CC(C)C)C(N)=O | – | horse erythrocytes 5 % v/v | 150 µM | – | hemolysis | 0% |

| Molecule | assay | system | setting | scale | measurement | value |
| --- | --- | --- | --- | --- | --- | --- |
| MVGGVVIA | filtration | peptide, sodium phosphate buffer | pH 7.4 | – | solubility | 149 ± 33 µM |
| N[C@@H](Cc1c[nH]c2ccccc12)C(=O)NO | – | – | – | – | pKa | 8 |
| CC(=O)[O][Pt]([NH2])([Cl])([Cl])([NH]C1CCCCC1)[O]C(C)=O | – | rats, plasma ultrafiltrate | – | – | bioavailability | 15 to 20% |
| O=C(O)CCCc1ccc(N(CCCl)CCCl)cc1 | – | plasma | concentration not given | – | Cmax | 1970 nM |
| Cn1c(N)nc2ncc(-c3ccccc3)cc21 | – | hepatic Por knock-out mouse, extrahepatic tissues | dose not given | baseline: wild type over knock-out | DNA adduct level decrease | 2 fold |
| O=C(O)C(F)(F)C(F)(F)C(F)(F)C(F)(F)C(F)(F)C(F)(F)C(F)(F)F | – | rat | – | baseline: renal over total clearance | renal clearance fraction | 50 to 80% |
| Cc1ccc(OCC(=O)N(Cc2cccs2)c2ccn[nH]2)cc1 | – | Crl:CD(SD) rats, male and female | 28 days | – | NOAEL | 100 mg/kg/day |
| CNCc1ccc(-c2[nH]c3cc(F)cc4c3c2CCNC4=O)cc1 | – | mouse | 50 mg/kg, 6 months, repeated 5-day schedule | – | toxicity | not toxic |
| O=C(O)C(Cl)(Cl)Cl | item: superoxide anion, lipid peroxidation, DNA damage | mouse, liver | 7.7 to 410 mg/kg/day, subchronic | – | dose of maximal hepatic oxidative damage | 410 mg/kg/day |
| Cn1c(=O)c2[nH]cnc2n(C)c1=O | – | octanol-water | – | – | logP | -0.17 |
| O=S(=O)([O-])C(F)(F)C(F)(F)C(F)(F)C(F)(F)C(F)(F)C(F)(F)F.[K+] | – | mouse | oral gavage, 1.6 to 14 mg/kg/day, 28 days | – | liver weight | increased |
| CC1=C(/C=C/C(C)=C/C=C/C(C)=C/C(=O)O)C(C)(C)CCC1 | – | rabbit, plasma | – | – | Cmax at LOAEL | ~1000 nM |
| CC(C)C[C@H](NC(=O)[C@H](Cc1ccccc1)NC(=O)c1cnccn1)B(O)O | – | children with refractory leukaemia | intravenous | – | maximum tolerated dose | 1.3 mg/m² |
| CN[C@H]1CC[C@@H](c2ccc(Cl)c(Cl)c2)c2ccccc21 | – | human | 2250 mg, day 1 after admission, together with: diazepam 200 mg and temazepam 400 mg | – | QTc interval | 525 ms |
| CC1=C(/C=C/C(C)=C/C=C/C(C)=C/C(=O)Nc2ccc(O)cc2)C(C)(C)CCC1 | – | human adults | 1800 mg/m2 per day | – | plasma concentration | 5000 to 7000 nM |
| CCOc1ccc2cc(-c3nn(CC4CCN(C)CC4)c4ncnc(N)c34)ccc2n1 | – | mouse, GI tract except duodenum | oral, 30 mg/kg, up to 12 h | – | GI tissue concentration | 8 to 11 µM |
| CC(C)[C@@H](Nc1ccc(C(F)(F)F)cc1Cl)C(=O)OC(C#N)c1cccc(Oc2ccccc2)c1 (stereo partly drawn) | – | rat or mouse | oral | – | LD50 | 26 mg/kg |
| CN[C@H]1C(=O)N[C@@H]2Cc3ccc(cc3)Oc3cc4cc(c3O[C@@H]3O[C@H](C(=O)O)[C@@H](O)[C@H](O)[C@H]3NC(=O)CCCCCCCCC(C)C)Oc3ccc(cc3Cl)[C@@H](O)[C@@H]3NC(=O)[C@H](NC(=O)[C@@H]4NC(=O)[C@@H](NC2=O)c2cc(cc(O)c2Cl)Oc2cc1ccc2O)c1ccc(O)c(c1)-c1c(O[C@H]2O[C@H](CO)[C@@H](O)[C@H](O)[C@@H]2O)cc(O)cc1[C@@H](C(=O)NCCCN(C)C)NC3=O | – | adults mostly with skin infections | dose not given, population PK | – | half-life | 204 h |
| CC1(C)O[C@@H]2[C@@H](CO[C@@]3(COS(N)(=O)=O)OC(C)(C)O[C@@H]23)O1 | – | human, plasma | total concentration, therapeutic range | – | therapeutic plasma concentration | 5 to 25 µg/mL |
| CCCCCOc1ccc(-c2cc(-c3ccc(C(=O)N[C@H]4C[C@@H](O)[C@@H](O)NC(=O)[C@@H]5[C@@H](O)[C@@H](C)CN5C(=O)[C@H]([C@H](O)CC(N)=O)NC(=O)[C@H]([C@H](O)[C@@H](O)c5ccc(O)c(OS(=O)(=O)O)c5)NC(=O)[C@@H]5C[C@@H](O)CN5C(=O)[C@H]([C@@H](C)O)NC4=O)cc3)no2)cc1 | – | human hepatocytes, adult | – | – | intrinsic biliary clearance | 25.5 ± 15.7 mL/min/kg |
| CN(CCCC(=O)O)N=O | – | rat | oral | – | TDLo | 6800 mg/kg |

Repeated from above:
| Molecule | assay | system | setting | scale | measurement | value |
| --- | --- | --- | --- | --- | --- | --- |
| CN[C@H]1C(=O)N[C@@H]2Cc3ccc(cc3)Oc3cc4cc(c3O[C@@H]3O[C@H](C(=O)O)[C@@H](O)[C@H](O)[C@H]3NC(=O)CCCCCCCCC(C)C)Oc3ccc(cc3Cl)[C@@H](O)[C@@H]3NC(=O)[C@H](NC(=O)[C@@H]4NC(=O)[C@@H](NC2=O)c2cc(cc(O)c2Cl)Oc2cc1ccc2O)c1ccc(O)c(c1)-c1c(O[C@H]2O[C@H](CO)[C@@H](O)[C@H](O)[C@@H]2O)cc(O)cc1[C@@H](C(=O)NCCCN(C)C)NC3=O | – | adults mostly with skin infections | dose not given, population PK | – | half-life | 204 h |
| CC1(C)O[C@@H]2[C@@H](CO[C@@]3(COS(N)(=O)=O)OC(C)(C)O[C@@H]23)O1 | – | human, plasma | total concentration, therapeutic range | – | therapeutic plasma concentration | 5 to 25 µg/mL |
| CCCCCOc1ccc(-c2cc(-c3ccc(C(=O)N[C@H]4C[C@@H](O)[C@@H](O)NC(=O)[C@@H]5[C@@H](O)[C@@H](C)CN5C(=O)[C@H]([C@H](O)CC(N)=O)NC(=O)[C@H]([C@H](O)[C@@H](O)c5ccc(O)c(OS(=O)(=O)O)c5)NC(=O)[C@@H]5C[C@@H](O)CN5C(=O)[C@H]([C@@H](C)O)NC4=O)cc3)no2)cc1 | – | human hepatocytes, adult | – | – | intrinsic biliary clearance | 25.5 ± 15.7 mL/min/kg |
